Results from different studies.
Parts stem from different laboratories: compare values within a part only.

Series 1
Target: Histone acetyltransferase KAT6A, winged helix 1, GST fusion (KAT6A, Homo sapiens, UniProt Q92794, residues 1-85)
Technique: protein binding microarray
Molecule type: double-stranded DNA, one strand shown
Medium: in vitro
Concentration: not given
Setting: 8-mer, flanks averaged, mean of 2 arrays, mostly near background
Baseline: not given
Reading: higher = stronger binding
Endpoint: E-score
Residues (chain): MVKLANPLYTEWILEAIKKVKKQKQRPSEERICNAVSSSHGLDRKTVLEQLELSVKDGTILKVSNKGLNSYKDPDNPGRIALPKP
TGGTTGAA: -0.225
ATATCTTA: -0.204
ATAAGAAA: -0.082
GGACGTAC: 0.0278
CCCAAAGC: -0.0391
CCGTGGTA: 0.0605
CCACATAG: -0.0902
AAGAGATC: -0.171
AATGTCAG: -0.147
CCCTCCGG: 0.0532
CCGAGTAG: 0.0749
AATAAAAC: -0.141
AGGCGTAC: 0.092
CCAGTAAG: -0.153
CACCGAAC: 0.0136
TATAGATA: -0.149

Series 2
Target: Sal-like protein 4, full length isoform B (SALL4, Homo sapiens, UniProt Q9UJQ4-2, residues 1-616)
Technique: universal PBM
Molecule type: double-stranded DNA, one strand shown
Medium: in vitro
Concentration: not given
Setting: 8-mer, flanks averaged, mean of replicates
Reading: higher = stronger binding
Endpoint: E-score
Target sequence (chain): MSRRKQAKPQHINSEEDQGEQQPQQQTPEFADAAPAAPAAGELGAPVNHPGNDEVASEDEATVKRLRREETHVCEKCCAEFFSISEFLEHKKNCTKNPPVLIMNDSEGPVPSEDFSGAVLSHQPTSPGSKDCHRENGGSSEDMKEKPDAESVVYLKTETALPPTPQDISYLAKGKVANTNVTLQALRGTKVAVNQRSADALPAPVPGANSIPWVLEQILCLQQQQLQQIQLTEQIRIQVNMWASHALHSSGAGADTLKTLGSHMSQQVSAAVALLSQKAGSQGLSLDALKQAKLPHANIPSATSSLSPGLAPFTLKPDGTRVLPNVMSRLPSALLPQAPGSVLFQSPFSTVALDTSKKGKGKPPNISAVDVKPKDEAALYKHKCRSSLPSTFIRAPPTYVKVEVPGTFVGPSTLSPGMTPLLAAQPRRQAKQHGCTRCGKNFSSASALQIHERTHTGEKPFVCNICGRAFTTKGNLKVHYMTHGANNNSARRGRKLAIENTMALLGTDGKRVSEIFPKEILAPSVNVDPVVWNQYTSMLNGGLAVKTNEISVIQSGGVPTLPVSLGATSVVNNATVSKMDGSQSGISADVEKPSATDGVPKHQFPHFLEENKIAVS
GAACAAGC: 0.0461
CATGGGGG: -0.264
AGAATGCA: 0.0701
AATTCGAT: 0.181
AGTTAGAA: 0.0484
AGCCACTG: -0.296
CCGCTCCG: -0.259
AGTGGACG: -0.0429
AGCTACCA: -0.0839
ATGCGCTG: -0.18
AGGGGGGC: -0.39
GAAGACGA: -0.0995
ATGAATTA: 0.364
TCCTAAGA: 0.0114
GCGAGCAA: -0.216
TCAGTCCA: -0.243
CGCGACAG: -0.209
CTTATGCA: 0.211
CCCTGAAA: 0.036
ATGTCTCC: 0.0278
ACTGGTCA: -0.0712
ACTTGGGG: -0.0538
CAGCGAAC: -0.139

Series 3
Target: RING finger protein unkempt homolog, zinc fingers 1-6, GST-SBP tag (UNK, Homo sapiens, UniProt Q9C0B0, residues 30-357)
Technique: RNA Bind-n-Seq
Molecule type: RNA
Medium: in vitro
Concentration: not given
Setting: RNA with constant flanks, human and mouse sites, ends assumed
Baseline: input RNA pool
Reading: higher = stronger binding
Endpoint: bound/input enrichment
Residues (chain): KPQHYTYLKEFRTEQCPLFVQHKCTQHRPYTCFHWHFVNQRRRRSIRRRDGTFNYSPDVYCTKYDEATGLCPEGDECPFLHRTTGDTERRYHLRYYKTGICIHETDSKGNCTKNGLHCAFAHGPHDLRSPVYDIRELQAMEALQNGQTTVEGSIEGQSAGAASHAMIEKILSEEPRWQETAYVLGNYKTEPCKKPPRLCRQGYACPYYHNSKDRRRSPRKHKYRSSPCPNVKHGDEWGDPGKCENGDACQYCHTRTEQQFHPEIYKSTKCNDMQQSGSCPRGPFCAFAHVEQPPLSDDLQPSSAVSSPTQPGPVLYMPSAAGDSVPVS
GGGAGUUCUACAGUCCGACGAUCUGGUUCUGGGUUGUUCGUGGUAGUGCCGGUUACAGCUCGUCACUCGGCCUCACGACCGGGAGCCGUGAGGCACCAUGCCCGCGGUGCUGGGGUUCGAAGGCAGCGCCAACAAGAUCGGCGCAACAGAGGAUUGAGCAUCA: 0.0775 ratio
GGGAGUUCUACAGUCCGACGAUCUACAUCGCAUUAGACAUUUUUACAUGAGAAAAGUCAAAUUUACUCAACAGAAUUACCAUGAUAGACUUUCACAAAUUCUAACAGAUUUCCCCAAAUUGGAUGAUAUUCAUCCGUUCUAUGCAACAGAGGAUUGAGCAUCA: 6.08 ratio
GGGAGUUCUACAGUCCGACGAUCGUAGACAAAGACCAGCCUUCCAUUUUAAACUCCUGUGAAGACCCAGUUCCAGGGAUGUUGUUUUUUUUGCCACCUGGUCAGCACUUGUCAGACUAUUCCCAGUUGAAUGAAAGCACAACACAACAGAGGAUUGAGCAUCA: 0.261 ratio
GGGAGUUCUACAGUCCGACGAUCCAGAUCUCUGCCCAGCUCUCGUGGCUGCCGACCAACAGUAACUACAGCCAUAUCAUCUUCCUCAACGAAGAAGAACUGGACAUCGUGAAGGCAGCCAGGUACAAGUACCAAUUCUUCAACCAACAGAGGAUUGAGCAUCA: 0.0465 ratio
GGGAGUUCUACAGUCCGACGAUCUAGUCAUAUUCCUGAGAAGUAGGAAACUAAAACUUCUUUUCAUAUAAUUGUUAGAAGGUUUGUUUCCCAAACUACCAUAGUUACAAAGGUGAAAAGCCAAAUUUUAGGAACAGAAUCAAACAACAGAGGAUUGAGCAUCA: 5.99 ratio
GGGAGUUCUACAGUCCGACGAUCCCUUCUGCAUAAGGUUUUUUUGUAGUGUAAUGUCUUAAUCAUAGUCUACCAUCAAAUAUUUUAGGAGUAUCUUUAAUGUUUAGAUAGUAUAUUAGCAGCAUGCAAUAAUUACAUCAUAAGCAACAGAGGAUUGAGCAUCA: 1.19 ratio
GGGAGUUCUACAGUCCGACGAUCACUCCUAUUAGCAAUGAAGUGGAAAUGGAAUCUGAGGAACAGAUUGCAGAAAGGAAAAGGAAGAUGACAAGAGAAGAAAGAAAAAUGGAAGCAAUUUUGCAGGCUUUUGCCAGACUUGAGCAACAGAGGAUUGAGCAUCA: 1.17 ratio
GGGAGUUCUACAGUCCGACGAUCCUUUCACUAACCUUACAUCCAGACAAGAAUAAAGAUGAAAAUGCAGAAACUCAAUUUAGACAAUUGGUGGCCAUUUAUGAAGUUUUAAAGGAUGAUGAAAGAAGGCAGAGGUAUGAUGAUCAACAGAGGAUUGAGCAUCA: 0.295 ratio

Series 4
Target: RNA binding protein fox-1 homolog 2, RRM domain, GST-SBP tag (RBFOX2, Homo sapiens, UniProt O43251-10, residues 100-194)
Technique: RNA Bind-n-Seq
Molecule type: RNA
Medium: in vitro
Concentration: 365 nM
Setting: natural RNA segment, single round, ends assumed
Baseline: no-protein control
Reading: higher = stronger binding
Endpoint: RBNS enrichment (R)
Residues (chain): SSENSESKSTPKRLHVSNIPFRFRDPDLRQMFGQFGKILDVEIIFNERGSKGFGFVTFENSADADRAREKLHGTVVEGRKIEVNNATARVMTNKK
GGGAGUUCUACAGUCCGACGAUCCCCUUAACCCUUGCCUCUAUUACCUAAGCUUAGUAAGUAGUUUUCUUAAUAUUGUCCAAUGUUUGGUGUUAUCUGCAUUGUUUUUUGUUUUUUUAAUUGUGGUUGUUCUGUGGAAUUCUCGGGUGCCAA: 1.76
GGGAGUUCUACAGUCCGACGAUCUUGCUUCAGAAUAGAUCUUUAUCAUCAUGUCUGCCUUUCCAUACUAUUGUAUUUAUUUUAGAAACUGAGAUAUACAUAGCAUGAUUACUUUUACAGAAGAAACUAAAAGAUGGAAUUCUCGGGUGCCAA: 0.779
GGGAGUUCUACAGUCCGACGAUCAGGAACAGGCCUCAGGAAUAUUUCUCCCUGGCCAGCCCUGCACUAGCUGGGGCAGGGGCAGAGGACAGCGGCUGUAGCUGUCACAUCUCUGCGACUCAUCCUGUACCGUGUGGAAUUCUCGGGUGCCAA: 0.367
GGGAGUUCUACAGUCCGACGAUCUAUUAAAAACUUAUUUUCCCUCGGGUUUGUUCUCGUUUUAUGUUUUUGUUGUUGUUGUUUUGUUAGCUUUCCUACUUCCACUGAGUAGCAUUUUGUAGAAUAAAAUUAAUUGGAAUUCUCGGGUGCCAA: 0.664
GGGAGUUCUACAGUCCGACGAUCUAGUUUCACAGUGCUGGCAAUGAAGCCCGUGGCCCACCACGCUAGGCGAGUGCUCUGCCACUGAGUCACGGCCCAGCCCUCUCUCCCUCAUUCUUCUGUUUCCAUACCAAUGGAAUUCUCGGGUGCCAA: 0.281
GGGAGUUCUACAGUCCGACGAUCCAUUGUGACAUACAAUUUAAACACUCAUUGGGCUGCUGUGCUGUGUAAAGAAAGAGGGACUGCAGUGUAGCUCCUUUAGUGGUGAGACAUGAAGGCUGUGGCAAUCUCAAUGGAAUUCUCGGGUGCCAA: 0.569
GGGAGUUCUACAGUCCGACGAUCUGAGACCAGCCUGAUCCAUAGAGUGAGUUCCAGGACAGCCAGGUUUAUACAGAGAAACCCUGUCUUGAAAGAGCCAAAAAAAAAAAAAAAAAAUACAAGCCAGGAUUCUGUGGAAUUCUCGGGUGCCAA: 0.693
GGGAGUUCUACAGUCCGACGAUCCAUAAAGUUACAGUUUGAUACAGGAAUUAUUAGGAGUAAUUCUUUUCUGUUUCUGUUUAUAAUGAAGAACACUGUAGCUACAUUUUCAGAAGUUAACAUCAAGCCAUCAAUGGAAUUCUCGGGUGCCAA: 0.541

Repeated from above (series 2):
CCCTGAAA: 0.036
AGTTAGAA: 0.0484
ACTTGGGG: -0.0538
AGGGGGGC: -0.39
CGCGACAG: -0.209
CTTATGCA: 0.211
GCGAGCAA: -0.216
AATTCGAT: 0.181
GAAGACGA: -0.0995
